Assay results collected from several papers.
Each numbered part is a random draw from the data of one study; scales do not carry over between parts. Changes are numbered by the printed parent chain.

Study 1
Target: RNA binding protein fox-1 homolog 2, RRM domain, GST-SBP tag (RBFOX2, Homo sapiens, UniProt O43251-10, residues 100-194)
Technique: RNA Bind-n-Seq
Form: RNA
Medium: in vitro
Concentration: 365 nM
Notes: natural RNA segment, single round, ends assumed
Reference: no-protein control
Direction: higher = stronger binding
Residues (chain): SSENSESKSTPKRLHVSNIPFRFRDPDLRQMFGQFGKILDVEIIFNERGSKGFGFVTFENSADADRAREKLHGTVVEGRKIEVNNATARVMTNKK
`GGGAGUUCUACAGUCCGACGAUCUUAUUUUUGUUUUAUUUUUGACAGACUAUUUGCUAAUGUAUAAUGUGCAGAAAAUAUUUAAUAUCAAAAGAAAAUUGAUAUUUUUAUACAAGUAAUUUCCUGAGCUAAAUUGGAAUUCUCGGGUGCCAA` — result for “RBNS enrichment (R)”: 0.721.
For `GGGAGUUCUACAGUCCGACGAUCUGAUACAGCACAUAUACAGAAUUAGCCAAAUGGUAUAAGACAAUAGAAAAAGGCUGUGGAUUCUUUGAGGACAUCACUAGAAAUCAUUCUUUGUCUCAAGUUCACACUCUUGGAAUUCUCGGGUGCCAA`, “RBNS enrichment (R)” read 0.492.
Under “RBNS enrichment (R)”, `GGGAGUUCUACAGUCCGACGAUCAAUUACUUGUAGUAAAUCAUUUGUUUGGGCUUCAAGCACUGUCUUCCAUCUGCAUCUUCCAGAUUUAUCAUGAGUGAUCUUGUUCUACUGUUAAAGAUGUCAAGCCUAAAUGGAAUUCUCGGGUGCCAA` is recorded as 0.714.
`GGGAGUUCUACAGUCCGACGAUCCAGAUGAAAGCACAGUAGUAGCUGACAGCUGGCUUAUUUGGUCCCUCGGCAUCUCUCGUAUGUGGCAUAUUGCUUUUGCCACUUUCCUAUCCAGCAGACAUCAAAGCAAAUGGAAUUCUCGGGUGCCAA`: “RBNS enrichment (R)” 0.5.
For `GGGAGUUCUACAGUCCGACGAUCGGCUUAUUGGGGCUUUUAGCAUCUCUAGUAAGUAGCAUACAGCUUUGGCUGGCUUUCUAUCCACAAACCUAAAGCAGAGCUUGAAUGAUAAAUAGCAAGAAUGGAUGUGUUGGAAUUCUCGGGUGCCAA`, “RBNS enrichment (R)” read 1.44.
`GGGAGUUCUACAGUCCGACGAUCCCAUGUAACGCACCUGUAACUUAUCAGCCCAUGUUCAUUACGUAACUUUGUACUGUACGUCACAGUGAUGAGUGUGACAGCUCAGCUCUUUGAUUUCAUAGUGAGUUUUCUGGAAUUCUCGGGUGCCAA`: “RBNS enrichment (R)” 0.398.
`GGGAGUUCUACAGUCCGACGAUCUAUAAUACUAAAAUGUAACUUUUUAAUCAUCUGGUUUUUAAAAGAUAAACAGUUUAGCCCAUCUCUCCAGAGAGCAAACAUAGGAAUAUGACUCAGGAGCCUCCUAGGGCUGGAAUUCUCGGGUGCCAA`: “RBNS enrichment (R)” 0.279.
`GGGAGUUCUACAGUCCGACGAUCGAUUGGUGGGCAGGUAGGGAAGACAUUGAGCAGACAGUGUCCGCUCAGUUGUCCUUCCCUCCCUUCCAAGGUCCCUCCCUCUUUCCAGGACAUCGCCCCCCCACCCCACCUGGAAUUCUCGGGUGCCAA`: “RBNS enrichment (R)” 0.158.

Study 2
Target: UBE2S UBC core domain (UniProt Q16763)
Technique: yeast two-hybrid
Medium: yeast
Notes: mostly zero background
Reference: not given
Direction: higher = stronger interaction
B1: ARK2C RING domain (UniProt Q6ZSG1); chain EGEESDTDEKCTICLSMLEDGEDVRRLPCMHLFHQLCVDQWLAMSKKCPICRVDIETQLGAD
B2: RNF25 RING domain (UniProt Q96BH1); chain LTDNNIPHGQCVICLYGFQEKEAFTKTPCYHYFHCHCLARYIQHMEQELKAQGQEQEQERQHATTKQKAVGVQCPVCREPLVYDLASL
B3: RNF170 RING domain (UniProt Q96K19); chain TRQQFYTDMYCPICLHQASFPVETNCGHLFCGACIIAYWRYGSWLGAISCPICRQTVTLLLTVF
B4: TRIM63 RING domain (UniProt Q969Q1); chain PMENLEKQLICPICLEMFTKPVVILPCQHNLCRKCANDIFQAANPYWTSRGSSVSMSGGRFRCPTCRHEVIMDRHGV
B5: TRIM8 RING domain (UniProt Q9BZR9); chain WKNCFEEELICPICLHVFVEPVQLPCKHNFCRGCIGEAWAKDSGLVRCPECNQAYNQKPGLE
B6: RC3H2 RING domain (UniProt Q9HBD1); chain QAAQWTEFLSCPICYNEFDENVHKPISLGCSHTVCKTCLNKLHRKACPFDQTAINTDIDVL
Target sequence (chain): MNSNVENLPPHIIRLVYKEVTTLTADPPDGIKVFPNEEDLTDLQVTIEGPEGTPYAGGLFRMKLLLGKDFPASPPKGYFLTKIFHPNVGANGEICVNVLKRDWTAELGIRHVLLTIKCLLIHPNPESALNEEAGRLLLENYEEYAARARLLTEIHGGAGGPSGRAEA
`B1 (ARK2C RING domain)` — result for “lacZ reporter activity”: 0.
`B2 (RNF25 RING domain)` — result for “lacZ reporter activity”: 0.
For `FASPPDSNFVCSVCHGVLKRPARLPCSHIFCKKCILRWLARQKTCPCCRKEVKRKKVVH (RNF151 RING domain (UniProt Q2KHN1))`, “lacZ reporter activity” read 0.
`B3 (RNF170 RING domain)` — result for “lacZ reporter activity”: 0.
`VTLSLTLPITCHICLGKVRQPVICINNHVFCSICIDLWLKNNSQCPACRVPITPENPCK (OBI1 RING domain (UniProt Q5W0B1))` — result for “lacZ reporter activity”: 0.
`QLRRLQEERTCKVCMDKEVSVVFIPCGHLVVCQECAPSLRKCPICRGIIKGTVRTF (BIRC2 RING domain (UniProt Q13490))`: “lacZ reporter activity” 0.
Under “lacZ reporter activity”, `EDEVSDNSAECVVCLSDVRDTLILPCRHLCLCNTCADTLRYQANNCPICRLPFRALLQIR (RNF157 RING domain (UniProt Q96PX1))` is recorded as 0.
`B4 (TRIM63 RING domain)`: “lacZ reporter activity” 0.
`B5 (TRIM8 RING domain)`: “lacZ reporter activity” 0.
`B6 (RC3H2 RING domain)`: “lacZ reporter activity” 0.

Study 3
Target: Prothrombin, mature alpha-thrombin (F2, Homo sapiens, UniProt P00734)
Technique: aptamer microarray, sandwich
Form: DNA with 2'F-ANA
Medium: in vitro
Concentration: 200 nM
Notes: whole 15-mer aptamer, many near background
Added: Cy3 exosite-II aptamer, 400 nM
Direction: higher = stronger binding
Oligonucleotide: GGTTGGTGTGGTTGG
`2'F-ANA at 2 6 7 9 10 11 12 13 15`: “mean fluorescence intensity” 106 a.u.
Under “mean fluorescence intensity”, `2'F-ANA at 3 4 6 8 9 10 12 13 15` is recorded as 204 a.u.
For `2'F-ANA at 1 2 3 4 6 14 15`, “mean fluorescence intensity” read 89.8 a.u.
`2'F-ANA at 2 3 4 5 6 9 11 12 15`: “mean fluorescence intensity” 125 a.u.
Under “mean fluorescence intensity”, `2'F-ANA at 1 2 4 6 7 9 14` is recorded as 54.1 a.u.
For `2'F-ANA at 2 3 4 6 7 8 10 11 13 14`, “mean fluorescence intensity” read 153 a.u.
For `2'F-ANA at 1 2 7 10 11 12 13 14`, “mean fluorescence intensity” read 186 a.u.
`2'F-ANA at 1 4 5 6 7 8 12 13 14 15`: “mean fluorescence intensity” 53.5 a.u.
`2'F-ANA at 1 2 3 5 6 8 9 13 14 15`: “mean fluorescence intensity” 52.3 a.u.
`2'F-ANA at 1 7 10 12 13`: “mean fluorescence intensity” 67.4 a.u.
Under “mean fluorescence intensity”, `2'F-ANA at 1 5 6 7 9 10 14` is recorded as 47.3 a.u.
`2'F-ANA at 1 2 4 6 7 9 10 11`: “mean fluorescence intensity” 50.4 a.u.
`2'F-ANA at 1 7 9 10 11 12 15`: “mean fluorescence intensity” 64.3 a.u.
`2'F-ANA at 5 7 8 11 12 14 15` — result for “mean fluorescence intensity”: 48.3 a.u.

Study 4
Target: CCNF, cyclin fold, Cln2 fusion (human)
Technique: yeast growth competition, sequencing
Medium: yeast
Notes: strong parent motif
Reference: not given
Direction: higher = stronger binding
Starting sequence: SCAPER docking peptide (human); SNARRSLNFGGST
For `S12I`, “normalised enrichment score” read 7.61.
`A3K`: “normalised enrichment score” 0.509.
`G11K` — result for “normalised enrichment score”: 6.36.
For `T13K`, “normalised enrichment score” read 7.67.
For `S1H`, “normalised enrichment score” read 7.52.
`S6A` — result for “normalised enrichment score”: 9.36.
`G11S`: “normalised enrichment score” 7.93.
`R5P`: “normalised enrichment score” -0.194.
`G11M`: “normalised enrichment score” 7.25.

Excerpt of the above (study 3):
Under “mean fluorescence intensity”, `2'F-ANA at 1 2 4 6 7 9 14` is recorded as 54.1 a.u.
For `2'F-ANA at 2 3 4 6 7 8 10 11 13 14`, “mean fluorescence intensity” read 153 a.u.
For `2'F-ANA at 1 2 7 10 11 12 13 14`, “mean fluorescence intensity” read 186 a.u.
`2'F-ANA at 1 4 5 6 7 8 12 13 14 15`: “mean fluorescence intensity” 53.5 a.u.
`2'F-ANA at 1 2 3 5 6 8 9 13 14 15`: “mean fluorescence intensity” 52.3 a.u.
`2'F-ANA at 1 7 10 12 13`: “mean fluorescence intensity” 67.4 a.u.
